Results collected from several papers.
Parts stem from different laboratories: compare values within a part only.
Chain of UniProt Q9Y616 (whole entry, looked up): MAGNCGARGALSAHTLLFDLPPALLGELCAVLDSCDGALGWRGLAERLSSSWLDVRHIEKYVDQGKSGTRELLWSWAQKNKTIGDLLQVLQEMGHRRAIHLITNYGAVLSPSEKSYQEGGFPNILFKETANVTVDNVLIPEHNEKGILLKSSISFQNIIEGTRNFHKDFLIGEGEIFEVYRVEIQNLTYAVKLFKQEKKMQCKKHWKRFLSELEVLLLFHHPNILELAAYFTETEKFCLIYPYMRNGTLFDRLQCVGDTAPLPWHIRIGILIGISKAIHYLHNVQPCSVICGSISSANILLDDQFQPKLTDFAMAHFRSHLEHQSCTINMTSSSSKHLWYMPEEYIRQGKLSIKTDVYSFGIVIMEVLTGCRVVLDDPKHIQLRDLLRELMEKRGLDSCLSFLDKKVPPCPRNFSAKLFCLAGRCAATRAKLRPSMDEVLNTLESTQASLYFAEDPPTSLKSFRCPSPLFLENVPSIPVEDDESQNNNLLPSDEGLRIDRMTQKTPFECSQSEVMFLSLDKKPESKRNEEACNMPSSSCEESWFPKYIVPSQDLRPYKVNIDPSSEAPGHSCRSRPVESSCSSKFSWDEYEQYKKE
Chain of UniProt Q96GD4 (whole entry, looked up): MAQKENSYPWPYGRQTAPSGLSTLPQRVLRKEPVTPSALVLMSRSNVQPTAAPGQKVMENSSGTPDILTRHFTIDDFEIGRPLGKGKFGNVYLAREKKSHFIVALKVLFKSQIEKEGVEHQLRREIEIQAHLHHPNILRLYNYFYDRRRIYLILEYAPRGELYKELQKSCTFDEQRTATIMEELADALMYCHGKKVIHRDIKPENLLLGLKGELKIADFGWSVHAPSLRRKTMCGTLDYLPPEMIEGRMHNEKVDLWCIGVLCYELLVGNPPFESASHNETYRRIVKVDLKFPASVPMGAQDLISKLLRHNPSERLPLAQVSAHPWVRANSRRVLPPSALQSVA
Chain of UniProt P09619 (whole entry, looked up): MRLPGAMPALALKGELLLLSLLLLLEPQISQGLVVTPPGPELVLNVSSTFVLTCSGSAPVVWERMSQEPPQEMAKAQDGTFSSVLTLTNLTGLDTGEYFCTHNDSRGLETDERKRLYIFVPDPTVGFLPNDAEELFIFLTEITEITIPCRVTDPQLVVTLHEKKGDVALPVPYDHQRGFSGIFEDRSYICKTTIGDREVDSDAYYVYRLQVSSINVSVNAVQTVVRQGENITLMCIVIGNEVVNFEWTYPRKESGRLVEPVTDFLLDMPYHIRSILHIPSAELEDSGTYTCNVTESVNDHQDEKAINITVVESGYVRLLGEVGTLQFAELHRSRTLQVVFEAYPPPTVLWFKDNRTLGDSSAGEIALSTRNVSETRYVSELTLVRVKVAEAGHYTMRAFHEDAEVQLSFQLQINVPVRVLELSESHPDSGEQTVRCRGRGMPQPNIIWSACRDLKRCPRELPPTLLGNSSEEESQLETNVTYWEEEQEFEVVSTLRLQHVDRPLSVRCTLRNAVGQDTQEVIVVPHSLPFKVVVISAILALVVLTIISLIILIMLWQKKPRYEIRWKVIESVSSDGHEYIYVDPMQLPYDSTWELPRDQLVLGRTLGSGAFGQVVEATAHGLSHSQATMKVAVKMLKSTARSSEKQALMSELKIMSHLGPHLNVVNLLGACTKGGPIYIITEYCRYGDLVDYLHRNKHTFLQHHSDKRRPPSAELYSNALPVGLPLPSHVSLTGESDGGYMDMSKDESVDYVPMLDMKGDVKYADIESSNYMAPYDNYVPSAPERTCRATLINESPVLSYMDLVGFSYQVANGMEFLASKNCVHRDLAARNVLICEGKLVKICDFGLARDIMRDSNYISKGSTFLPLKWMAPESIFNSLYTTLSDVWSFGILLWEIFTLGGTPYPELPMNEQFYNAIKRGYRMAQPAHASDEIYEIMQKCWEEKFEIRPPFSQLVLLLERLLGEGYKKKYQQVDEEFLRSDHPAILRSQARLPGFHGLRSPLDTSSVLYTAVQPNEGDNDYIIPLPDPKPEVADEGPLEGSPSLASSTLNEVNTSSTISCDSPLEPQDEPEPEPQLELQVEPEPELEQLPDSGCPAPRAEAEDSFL
Chain of UniProt Q13153 (whole entry, looked up): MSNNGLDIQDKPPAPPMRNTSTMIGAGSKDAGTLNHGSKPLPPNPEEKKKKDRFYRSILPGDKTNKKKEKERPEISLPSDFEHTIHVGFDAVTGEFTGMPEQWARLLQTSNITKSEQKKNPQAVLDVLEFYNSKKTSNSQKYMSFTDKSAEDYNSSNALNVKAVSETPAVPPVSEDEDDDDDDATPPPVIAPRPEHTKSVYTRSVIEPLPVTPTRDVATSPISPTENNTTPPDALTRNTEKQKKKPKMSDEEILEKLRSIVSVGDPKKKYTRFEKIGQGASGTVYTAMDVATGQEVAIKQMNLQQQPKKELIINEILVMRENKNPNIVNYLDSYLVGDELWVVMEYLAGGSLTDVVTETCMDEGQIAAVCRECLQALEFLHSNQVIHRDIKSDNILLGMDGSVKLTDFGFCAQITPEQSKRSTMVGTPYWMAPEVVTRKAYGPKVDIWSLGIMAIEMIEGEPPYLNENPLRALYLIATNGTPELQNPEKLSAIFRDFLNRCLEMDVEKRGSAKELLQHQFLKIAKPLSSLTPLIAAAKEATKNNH
Chain of UniProt Q13464 (whole entry, looked up): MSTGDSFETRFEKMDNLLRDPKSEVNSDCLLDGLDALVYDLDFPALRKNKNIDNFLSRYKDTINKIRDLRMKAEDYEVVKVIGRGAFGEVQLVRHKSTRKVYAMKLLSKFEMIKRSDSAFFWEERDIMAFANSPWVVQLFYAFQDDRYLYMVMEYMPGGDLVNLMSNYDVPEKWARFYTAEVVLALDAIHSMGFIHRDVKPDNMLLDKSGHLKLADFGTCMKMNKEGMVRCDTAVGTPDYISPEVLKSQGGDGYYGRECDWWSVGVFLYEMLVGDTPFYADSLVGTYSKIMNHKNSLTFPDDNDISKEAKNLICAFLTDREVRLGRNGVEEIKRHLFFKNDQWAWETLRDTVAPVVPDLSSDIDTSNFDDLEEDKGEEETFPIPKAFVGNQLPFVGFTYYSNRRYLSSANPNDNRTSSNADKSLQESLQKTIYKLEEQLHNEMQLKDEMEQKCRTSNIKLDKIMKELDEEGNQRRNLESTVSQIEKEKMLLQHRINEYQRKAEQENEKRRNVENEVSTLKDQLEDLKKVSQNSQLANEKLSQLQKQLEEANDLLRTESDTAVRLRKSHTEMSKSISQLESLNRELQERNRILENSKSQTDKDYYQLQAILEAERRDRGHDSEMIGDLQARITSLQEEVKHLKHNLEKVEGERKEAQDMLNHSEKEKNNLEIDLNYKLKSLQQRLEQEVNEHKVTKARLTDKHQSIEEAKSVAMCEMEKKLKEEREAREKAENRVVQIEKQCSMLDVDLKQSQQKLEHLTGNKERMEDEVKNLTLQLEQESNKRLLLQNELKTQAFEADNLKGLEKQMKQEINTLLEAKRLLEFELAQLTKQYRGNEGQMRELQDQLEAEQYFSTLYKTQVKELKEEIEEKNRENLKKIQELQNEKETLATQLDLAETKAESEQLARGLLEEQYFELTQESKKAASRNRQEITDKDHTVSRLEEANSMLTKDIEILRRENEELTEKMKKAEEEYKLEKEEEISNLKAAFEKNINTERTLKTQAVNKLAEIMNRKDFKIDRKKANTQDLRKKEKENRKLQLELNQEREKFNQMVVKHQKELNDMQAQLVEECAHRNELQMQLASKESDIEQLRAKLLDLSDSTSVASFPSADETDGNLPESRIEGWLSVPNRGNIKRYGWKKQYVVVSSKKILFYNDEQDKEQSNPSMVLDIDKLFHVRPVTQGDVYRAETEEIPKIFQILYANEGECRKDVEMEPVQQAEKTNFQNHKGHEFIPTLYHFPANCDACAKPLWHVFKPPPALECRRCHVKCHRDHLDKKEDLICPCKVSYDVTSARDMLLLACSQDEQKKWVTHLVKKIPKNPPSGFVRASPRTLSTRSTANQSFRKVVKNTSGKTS
Chain of UniProt Q6P2M8 (whole entry, looked up): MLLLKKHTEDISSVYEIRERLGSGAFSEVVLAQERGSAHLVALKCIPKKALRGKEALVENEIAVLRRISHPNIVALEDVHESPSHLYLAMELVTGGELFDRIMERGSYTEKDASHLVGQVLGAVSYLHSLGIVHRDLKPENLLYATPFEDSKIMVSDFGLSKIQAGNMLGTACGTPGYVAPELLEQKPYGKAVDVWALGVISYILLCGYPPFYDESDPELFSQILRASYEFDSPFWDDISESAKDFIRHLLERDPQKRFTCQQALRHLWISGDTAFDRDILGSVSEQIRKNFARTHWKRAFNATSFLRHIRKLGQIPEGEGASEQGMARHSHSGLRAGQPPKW
Chain of UniProt Q13237 (whole entry, looked up): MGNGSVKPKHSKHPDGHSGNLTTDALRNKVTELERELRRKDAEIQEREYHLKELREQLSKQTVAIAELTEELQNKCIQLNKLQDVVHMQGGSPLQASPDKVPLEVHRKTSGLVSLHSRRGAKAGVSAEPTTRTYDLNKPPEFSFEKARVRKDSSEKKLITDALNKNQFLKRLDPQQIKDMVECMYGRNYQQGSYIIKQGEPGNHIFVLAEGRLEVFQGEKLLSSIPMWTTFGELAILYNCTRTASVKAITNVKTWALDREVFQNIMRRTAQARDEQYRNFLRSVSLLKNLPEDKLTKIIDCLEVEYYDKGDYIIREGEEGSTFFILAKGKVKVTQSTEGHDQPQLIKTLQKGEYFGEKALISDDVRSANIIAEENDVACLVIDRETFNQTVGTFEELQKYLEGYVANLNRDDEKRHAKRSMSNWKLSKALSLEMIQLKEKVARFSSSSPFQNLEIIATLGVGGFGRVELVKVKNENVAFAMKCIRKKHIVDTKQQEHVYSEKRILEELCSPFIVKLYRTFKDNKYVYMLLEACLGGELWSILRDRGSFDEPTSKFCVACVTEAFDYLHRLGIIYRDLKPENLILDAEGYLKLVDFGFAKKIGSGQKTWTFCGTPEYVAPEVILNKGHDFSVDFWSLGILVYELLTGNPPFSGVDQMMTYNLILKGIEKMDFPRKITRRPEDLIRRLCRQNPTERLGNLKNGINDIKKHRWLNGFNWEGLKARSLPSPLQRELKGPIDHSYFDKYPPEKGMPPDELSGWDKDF

Set 1
Target: Fragile X messenger ribonucleoprotein 1, C-terminal low-complexity region (Fmr1, Mus musculus, UniProt P35922)
Technique: RNA Bind-n-Seq
Form: RNA
Matrix: in vitro
Concentration: 200 nM
Notes: whole 134-nt RNA, ends assumed
Together with: 150 mM KCl
Reference: input library
Reading: higher = stronger binding
Oligonucleotide | log2 enrichment
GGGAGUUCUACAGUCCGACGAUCUCAAGUCCUGUGCUACACAUCGUAUGUACCGAAUCGGGGUGGGGUGGGGAGGGGAAAGUAUUAUGUUACGCCGUUCGGAUCUGCACUUCCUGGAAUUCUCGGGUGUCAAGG | 1.41
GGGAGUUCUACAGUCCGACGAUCAAGUCCUGUGCUACACAUCGUAUGUACCGAAUCGGGAAAGGGAAAGGGUUUUUGGGAAAGUAUUAUGUUACGCCGUUCGGAUCUGCACUUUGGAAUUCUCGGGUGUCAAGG | 0.3
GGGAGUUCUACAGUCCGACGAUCCUCAAGUCCUGUGCUACACAUCGUAUGUACCGAAUCGUGUGUGUGUGUGUGUGUAAAGUAUUAUGUUACGCCGUUCGGAUCUGCACUUCCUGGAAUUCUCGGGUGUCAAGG | 0.105
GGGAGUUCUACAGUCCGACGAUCAAGUCCUGUGCUACACAUCGUAUGUACCGAAUCGGGAAAGGGUUUGGGUUUUUGGGAAAGUAUUAUGUUACGCCGUUCGGAUCUGCACUUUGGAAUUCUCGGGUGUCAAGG | 0.455
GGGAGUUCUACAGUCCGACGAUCGUCCUGUGCUACACAUCGUAUGUACCGAAUCGGGAAAAAGGGUUUUUGGGUUUUUGGGAAAGUAUUAUGUUACGCCGUUCGGAUCUGCACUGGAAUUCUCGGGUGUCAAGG | -0.263
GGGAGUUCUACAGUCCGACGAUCAGUCCUGUGCUACACAUCGUAUGUACCGAAUCGGGUUUUGGGUUUUGGGGUUUUGGGGAAAGUAUUAUGUUACGCCGUUCGGAUCUGCACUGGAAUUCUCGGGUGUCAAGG | 0.694
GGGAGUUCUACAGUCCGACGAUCCUCAACGUUGACAGUAAUGAACAAGGCUCCUAUGUAGUGGCCAUGGAAACCUUUACCAACUUAGGACCCAUUGUCGAUAUGUGCGUGGUGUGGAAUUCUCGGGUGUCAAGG | -0.438
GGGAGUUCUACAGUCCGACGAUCUGGGGGGUGGAUUUUGUUUAUUUUUUUAGCUCAUUUCCAGGGGUGGGAAUUUUUUUUUAAUAUGUGUCAUGAAUAAAGUUGUUUUUGAAAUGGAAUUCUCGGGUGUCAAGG | 0.509

Set 2
Compound: O=C(O)/C=C/c1cc(Br)c(Br)c(Br)c1Br
Read-out: enzyme activity
Action: inhibitor
Concentration: 0.5 µM
Reference: control
target | remaining activity [%]
Cyclin-dependent kinase 9, with cyclin K (CDK9, Homo sapiens, UniProt P50750) | 65.3
Cyclin-dependent kinase 1, with cyclin A (CDK1, Homo sapiens, UniProt P06493) | 88.6
Discoidin domain-containing receptor 2 (DDR2, Homo sapiens, UniProt Q16832) | 94.3
cGMP-dependent protein kinase 2 (PRKG2, Homo sapiens, UniProt Q13237) | 80.3
Serine/threonine-protein kinase Nek3 (NEK3, Homo sapiens, UniProt P51956) | 83.5
Misshapen-like kinase 1 (MINK1, Homo sapiens, UniProt Q8N4C8) | 96
Vascular endothelial growth factor receptor 2 (KDR, Homo sapiens, UniProt P35968) | 90.1
Rho-associated protein kinase 1 (ROCK1, Homo sapiens, UniProt Q13464) | 97.6
RAC-beta serine/threonine-protein kinase (AKT2, Homo sapiens, UniProt P31751) | 97.5
Mitogen-activated protein kinase 1 (MAPK1, Homo sapiens, UniProt P28482) | 98.5
Calcium/calmodulin-dependent protein kinase type 1B (PNCK, Homo sapiens, UniProt Q6P2M8) | 95.1
Calcium/calmodulin-dependent protein kinase type IV (CAMK4, Homo sapiens, UniProt Q16566) | 103
Dual specificity mitogen-activated protein kinase kinase 1 (MAP2K1, Homo sapiens, UniProt Q02750) | 95.8

Set 3
Target: TAR DNA-binding protein 43, full length, His tag (TARDBP, Homo sapiens, UniProt Q13148, residues 1-414)
Technique: RNA Bind-n-Seq
Form: RNA
Matrix: in vitro
Concentration: 20 nM
Notes: 6-mer, flanks averaged, single round
Together with: 150 mM LiCl
Reference: input library
Reading: higher = stronger binding
Oligonucleotide | 6-mer enrichment (R)
CACUGU | 0.924
UUAUCC | 0.965
ACCGGU | 0.882
UGGCGU | 1.11
GUAACA | 0.843
GUACAG | 0.906
UUACAA | 0.894
CUUGGC | 1

Set 4
Compound: O=S(=O)(NC1CCC(c2cc(F)ccc2F)(S(=O)(=O)c2ccc(Cl)cc2)CC1)C(F)(F)F (stereo not drawn)
Concentration: 1 µM
target | assay | remaining binding
Receptor-type tyrosine-protein kinase FLT3 (FLT3, Homo sapiens, UniProt P36888, D835Y) | cell-free assay, competition with immobilised ligand | 98%
Epidermal growth factor receptor (EGFR, Homo sapiens, UniProt P00533, L858R/T790M) | cell-free assay, competition with immobilised ligand | 89%
Epidermal growth factor receptor (EGFR, Homo sapiens, UniProt P00533, A750P/del747-749) | cell-free assay, competition with immobilised ligand | 92%
Receptor-type tyrosine-protein kinase FLT3 (FLT3, Homo sapiens, UniProt P36888, ITD) | cell-free assay, competition with immobilised ligand | 91%
Aurora kinase B (AURKB, Homo sapiens, UniProt Q96GD4) | cell-free assay, competition with immobilised ligand | 100%
Serine/threonine-protein kinase Nek7 (NEK7, Homo sapiens, UniProt Q8TDX7) | cell-free assay, competition with immobilised ligand | 100%
Serine/threonine-protein kinase PAK 1 (PAK1, Homo sapiens, UniProt Q13153) | cell-free assay, competition with immobilised ligand | 93%
Platelet-derived growth factor receptor beta (PDGFRB, Homo sapiens, UniProt P09619) | cell-free assay, competition with immobilised ligand | 100%
Interleukin-1 receptor-associated kinase 3 (IRAK3, Homo sapiens, UniProt Q9Y616) | cell-free assay, competition with immobilised ligand | 98%
Serine/threonine-protein kinase SIK1 (SIK1, Homo sapiens, UniProt P57059) | competition binding | 100%
Epidermal growth factor receptor (EGFR, Homo sapiens, UniProt P00533, del747-752/P753S) | cell-free assay, competition with immobilised ligand | 0%
Receptor-type tyrosine-protein kinase FLT3 (FLT3, Homo sapiens, UniProt P36888) | cell-free assay, competition with immobilised ligand | 100%
Serine/threonine-protein kinase Sgk2 (SGK2, Homo sapiens, UniProt Q9HBY8) | cell-free assay, competition with immobilised ligand | 93%
Calcium/calmodulin-dependent protein kinase type II subunit delta (CAMK2D, Homo sapiens, UniProt Q13557) | cell-free assay, competition with immobilised ligand | 100%
Receptor-type tyrosine-protein kinase FLT3 (FLT3, Homo sapiens, UniProt P36888, D835V) | cell-free assay, competition with immobilised ligand | 82%
Receptor-type tyrosine-protein kinase FLT3 (FLT3, Homo sapiens, UniProt P36888, K663Q) | cell-free assay, competition with immobilised ligand | 97%

A few entries again (set 3):
Oligonucleotide | 6-mer enrichment (R)
UUAUCC | 0.965
ACCGGU | 0.882
UGGCGU | 1.11
GUAACA | 0.843
GUACAG | 0.906
UUACAA | 0.894
CUUGGC | 1
